Experimental data pooled from the literature.
Parts stem from different laboratories: compare values within a part only.
Chain of UniProt P10721 (whole entry, unmodified, looked up): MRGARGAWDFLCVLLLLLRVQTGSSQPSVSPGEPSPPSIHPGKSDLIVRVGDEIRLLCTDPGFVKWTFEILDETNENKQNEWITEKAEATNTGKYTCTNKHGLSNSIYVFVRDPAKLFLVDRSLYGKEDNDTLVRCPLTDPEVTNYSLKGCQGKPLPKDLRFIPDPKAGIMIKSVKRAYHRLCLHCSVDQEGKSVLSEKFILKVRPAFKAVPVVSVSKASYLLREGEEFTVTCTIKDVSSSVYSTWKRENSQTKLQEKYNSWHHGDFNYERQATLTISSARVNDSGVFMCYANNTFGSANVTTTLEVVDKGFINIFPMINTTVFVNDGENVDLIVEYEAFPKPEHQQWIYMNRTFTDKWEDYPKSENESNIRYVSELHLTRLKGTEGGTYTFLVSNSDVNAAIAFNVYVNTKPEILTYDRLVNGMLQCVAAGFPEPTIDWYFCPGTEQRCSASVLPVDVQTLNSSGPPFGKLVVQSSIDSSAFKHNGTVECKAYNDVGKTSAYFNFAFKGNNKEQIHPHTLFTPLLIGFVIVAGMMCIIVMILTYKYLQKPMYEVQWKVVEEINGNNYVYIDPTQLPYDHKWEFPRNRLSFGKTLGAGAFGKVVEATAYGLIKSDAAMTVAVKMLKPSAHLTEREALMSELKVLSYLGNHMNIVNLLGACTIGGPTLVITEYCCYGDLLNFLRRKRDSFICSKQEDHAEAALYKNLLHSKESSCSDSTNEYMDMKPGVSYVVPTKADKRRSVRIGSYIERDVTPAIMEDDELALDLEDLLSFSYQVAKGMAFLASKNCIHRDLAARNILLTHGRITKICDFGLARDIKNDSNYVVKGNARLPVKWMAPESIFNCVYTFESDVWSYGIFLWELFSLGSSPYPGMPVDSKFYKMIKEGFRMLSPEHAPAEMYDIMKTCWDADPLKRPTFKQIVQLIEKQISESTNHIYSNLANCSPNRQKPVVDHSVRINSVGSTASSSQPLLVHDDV
Chain of UniProt Q9UBF8 (whole entry, looked up): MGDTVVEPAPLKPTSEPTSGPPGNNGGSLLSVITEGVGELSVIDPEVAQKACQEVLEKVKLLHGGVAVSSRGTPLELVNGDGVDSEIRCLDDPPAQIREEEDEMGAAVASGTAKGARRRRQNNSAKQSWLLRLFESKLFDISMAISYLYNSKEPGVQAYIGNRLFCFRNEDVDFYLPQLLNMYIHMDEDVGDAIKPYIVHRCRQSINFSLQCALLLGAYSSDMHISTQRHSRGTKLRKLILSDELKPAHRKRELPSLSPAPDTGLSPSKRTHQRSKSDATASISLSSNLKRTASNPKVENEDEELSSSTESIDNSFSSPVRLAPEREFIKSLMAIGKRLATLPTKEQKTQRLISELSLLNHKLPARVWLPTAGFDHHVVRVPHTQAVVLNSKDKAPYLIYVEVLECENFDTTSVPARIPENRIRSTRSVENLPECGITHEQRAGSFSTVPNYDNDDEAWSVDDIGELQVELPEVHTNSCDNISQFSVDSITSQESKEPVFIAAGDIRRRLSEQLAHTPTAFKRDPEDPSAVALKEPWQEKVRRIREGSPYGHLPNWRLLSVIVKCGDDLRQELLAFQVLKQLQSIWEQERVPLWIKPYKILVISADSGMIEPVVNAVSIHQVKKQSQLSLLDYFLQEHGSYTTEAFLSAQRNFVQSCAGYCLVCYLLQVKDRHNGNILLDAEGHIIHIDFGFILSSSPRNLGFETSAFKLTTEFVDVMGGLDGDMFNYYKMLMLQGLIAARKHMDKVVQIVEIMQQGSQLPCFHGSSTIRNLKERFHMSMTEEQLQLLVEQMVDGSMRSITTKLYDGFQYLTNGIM
Chain of UniProt P35626 (whole entry, looked up): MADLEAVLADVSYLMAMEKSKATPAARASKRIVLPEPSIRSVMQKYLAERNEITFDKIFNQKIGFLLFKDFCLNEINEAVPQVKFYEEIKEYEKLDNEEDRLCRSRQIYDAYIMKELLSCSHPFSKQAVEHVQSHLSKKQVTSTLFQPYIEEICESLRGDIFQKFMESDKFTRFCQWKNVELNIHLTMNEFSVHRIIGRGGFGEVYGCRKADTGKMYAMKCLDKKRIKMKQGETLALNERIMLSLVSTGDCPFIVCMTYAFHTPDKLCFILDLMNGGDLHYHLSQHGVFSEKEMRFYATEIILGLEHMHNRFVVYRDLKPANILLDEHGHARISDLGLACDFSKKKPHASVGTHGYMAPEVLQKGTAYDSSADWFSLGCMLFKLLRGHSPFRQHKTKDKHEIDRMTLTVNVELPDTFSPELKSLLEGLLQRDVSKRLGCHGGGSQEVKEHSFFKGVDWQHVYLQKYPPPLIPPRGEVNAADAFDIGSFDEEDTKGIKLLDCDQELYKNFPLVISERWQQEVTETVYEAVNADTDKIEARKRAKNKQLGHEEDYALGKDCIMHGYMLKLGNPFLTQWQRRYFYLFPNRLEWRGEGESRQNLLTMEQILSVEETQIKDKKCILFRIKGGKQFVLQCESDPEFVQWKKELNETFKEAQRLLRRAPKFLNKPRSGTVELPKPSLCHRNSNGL
Chain of UniProt P16234 (whole entry, looked up): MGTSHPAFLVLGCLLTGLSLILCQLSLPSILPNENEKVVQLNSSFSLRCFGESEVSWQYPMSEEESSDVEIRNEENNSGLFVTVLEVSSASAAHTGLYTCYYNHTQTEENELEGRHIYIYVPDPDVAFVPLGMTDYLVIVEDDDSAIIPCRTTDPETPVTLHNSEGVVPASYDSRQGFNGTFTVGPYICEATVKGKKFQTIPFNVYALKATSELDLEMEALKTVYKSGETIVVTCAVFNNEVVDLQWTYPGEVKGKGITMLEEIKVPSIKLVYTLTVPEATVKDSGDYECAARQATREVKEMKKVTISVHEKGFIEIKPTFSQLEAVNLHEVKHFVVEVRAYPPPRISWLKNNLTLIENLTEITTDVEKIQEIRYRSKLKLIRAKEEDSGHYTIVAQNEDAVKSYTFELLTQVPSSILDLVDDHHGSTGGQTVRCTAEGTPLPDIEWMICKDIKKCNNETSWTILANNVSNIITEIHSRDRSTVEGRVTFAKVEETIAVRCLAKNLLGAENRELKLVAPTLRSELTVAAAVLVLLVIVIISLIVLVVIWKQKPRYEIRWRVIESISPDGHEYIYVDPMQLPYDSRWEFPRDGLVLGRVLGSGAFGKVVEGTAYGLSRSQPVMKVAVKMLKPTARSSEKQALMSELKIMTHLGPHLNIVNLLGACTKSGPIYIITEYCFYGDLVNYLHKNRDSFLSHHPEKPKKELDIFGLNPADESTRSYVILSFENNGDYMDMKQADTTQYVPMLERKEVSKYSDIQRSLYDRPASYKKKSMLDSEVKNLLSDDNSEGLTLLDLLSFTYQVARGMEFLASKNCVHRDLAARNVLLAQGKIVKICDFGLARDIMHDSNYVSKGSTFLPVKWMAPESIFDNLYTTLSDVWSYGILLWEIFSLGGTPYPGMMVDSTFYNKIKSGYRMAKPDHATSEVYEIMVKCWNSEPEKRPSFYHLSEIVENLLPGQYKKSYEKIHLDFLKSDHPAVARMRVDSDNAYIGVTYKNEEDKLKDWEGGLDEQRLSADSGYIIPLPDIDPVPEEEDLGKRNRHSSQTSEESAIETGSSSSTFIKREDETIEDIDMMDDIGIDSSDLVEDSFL
Chain of UniProt Q8TDC3 (whole entry, looked up): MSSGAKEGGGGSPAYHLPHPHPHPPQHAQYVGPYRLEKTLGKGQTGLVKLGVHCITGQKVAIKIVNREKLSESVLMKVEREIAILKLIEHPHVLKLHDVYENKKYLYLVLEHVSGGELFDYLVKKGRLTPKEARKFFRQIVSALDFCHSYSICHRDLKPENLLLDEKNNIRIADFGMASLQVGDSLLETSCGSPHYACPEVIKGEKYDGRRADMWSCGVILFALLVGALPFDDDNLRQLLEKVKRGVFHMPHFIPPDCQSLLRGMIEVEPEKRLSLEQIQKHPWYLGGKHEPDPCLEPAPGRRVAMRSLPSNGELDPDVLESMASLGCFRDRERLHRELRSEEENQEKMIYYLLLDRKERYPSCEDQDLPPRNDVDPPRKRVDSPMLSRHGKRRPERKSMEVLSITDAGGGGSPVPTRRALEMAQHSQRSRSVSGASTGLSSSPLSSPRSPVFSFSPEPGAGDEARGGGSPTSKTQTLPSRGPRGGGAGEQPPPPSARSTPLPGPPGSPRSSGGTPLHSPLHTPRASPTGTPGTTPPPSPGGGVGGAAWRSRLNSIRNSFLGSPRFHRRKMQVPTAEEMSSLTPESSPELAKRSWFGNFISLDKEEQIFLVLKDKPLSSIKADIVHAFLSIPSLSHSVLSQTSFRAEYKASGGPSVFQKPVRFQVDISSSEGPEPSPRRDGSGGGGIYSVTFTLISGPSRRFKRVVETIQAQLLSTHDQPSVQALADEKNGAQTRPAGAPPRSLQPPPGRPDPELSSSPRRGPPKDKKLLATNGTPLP
Chain of UniProt Q13554 (whole entry, looked up): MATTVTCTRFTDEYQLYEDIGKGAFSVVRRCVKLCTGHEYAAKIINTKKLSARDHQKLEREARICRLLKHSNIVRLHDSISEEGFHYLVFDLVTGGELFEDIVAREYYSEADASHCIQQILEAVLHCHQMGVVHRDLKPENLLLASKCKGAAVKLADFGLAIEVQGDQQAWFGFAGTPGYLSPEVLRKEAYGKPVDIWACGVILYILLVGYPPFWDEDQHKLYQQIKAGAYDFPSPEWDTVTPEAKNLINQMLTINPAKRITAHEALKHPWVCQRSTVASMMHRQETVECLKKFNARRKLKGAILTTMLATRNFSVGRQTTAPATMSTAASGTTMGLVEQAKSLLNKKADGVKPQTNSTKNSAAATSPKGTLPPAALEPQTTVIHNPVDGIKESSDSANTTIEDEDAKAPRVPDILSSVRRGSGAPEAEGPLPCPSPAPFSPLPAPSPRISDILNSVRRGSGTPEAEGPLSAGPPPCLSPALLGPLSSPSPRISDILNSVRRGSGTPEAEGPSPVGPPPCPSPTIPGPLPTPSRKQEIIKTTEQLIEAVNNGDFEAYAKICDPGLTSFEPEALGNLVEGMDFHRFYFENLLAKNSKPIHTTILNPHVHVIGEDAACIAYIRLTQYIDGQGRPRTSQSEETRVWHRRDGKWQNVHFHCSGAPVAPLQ

Series 1
Host: human
Matrix: microsomes or S9
Tested at: 2 µM
Time: 0.5 h
| SMILES | remaining compound [%] |
| --- | --- |
| CCC(CC)CN(CC(=O)OC)S(=O)(=O)c1ccc(S(C)(=O)=O)cc1 | 87 |
| CCNC(=O)c1cc(S(=O)(=O)NC(C(=O)O)C(C)C)cs1 (stereo not drawn) | > 99 |
| CCCC(O)(CCC)CC(=O)Nc1cc(-c2n[nH]c(=O)[nH]2)ccc1C | 96.3 |
| Cc1cc(C)n(-c2nc3cc(Cl)c(Cl)cc3nc2NCc2ccncc2)n1 | 102 |
| CC1(C)CON(Cc2cc(-c3ccccc3)sc2Cl)C1=O | 36.5 |
| NC1(c2ccccc2)C(=O)Nc2ccccc2C1=O (stereo not drawn) | 96.7 |
| COc1ccc2c(c1OC)C(=O)N1c3ccccc3C(=O)N(CC(=O)Nc3ccc4nc[nH]c4c3)C21 (stereo not drawn) | > 99 |
| CCc1ccc(S(=O)(=O)[C@H]2CS(=O)(=O)C[C@@H]2N(C)CCc2ccncc2)cc1 | 0.319 |

Series 2
Cell line: A-375
Tested at: 100 µM
Time: 18 h
| Structure (SMILES) | viability |
| --- | --- |
| CC#C[C@]1(O)CC[C@H]2[C@@H]3CCC4=CC(=O)CCC4=C3[C@@H](c3ccc(N(C)C)cc3)C[C@@]21C | 49.3% |
| NS(=O)(=O)Cc1noc2ccccc12 | 114% |
| Cc1cc(N)c2ccccc2[n+]1CCCCCCCCCC[n+]1c(C)cc(N)c2ccccc21 | 40.6% |
| O=[N+]([O-])c1ccc(O)c2ncccc12 | 47.4% |
| O=C(O)CCn1c2c(c3ccccc31)C[C@H](NS(=O)(=O)c1ccc(F)cc1)CC2 | 107% |
| CC[C@H](C)C(=O)O[C@H]1C[C@@H](C)C=C2C=C[C@H](C)[C@H](CC[C@@H]3C[C@@H](O)CC(=O)O3)[C@H]21 | 78.7% |
| Cc1nnc(C(C)C)n1[C@@H]1C[C@H]2CC[C@@H](C1)N2CC[C@H](NC(=O)C1CCC(F)(F)CC1)c1ccccc1 | 105% |

Series 3
Organism: Sarcocystis neurona
Observed: parasite activity
Tested at: 10 µM
Time: 96 h
| SMILES | activity class |
| --- | --- |
| Nc1nc(Cl)nc2c1ncn2[C@H]1C[C@H](O)[C@@H](CO)O1 | inactive |
| CC(=O)Nc1nnc(S(N)(=O)=O)s1 | inactive |
| CC(=O)OCC(=O)[C@@]1(O)CC[C@H]2[C@@H]3CCC4=CC(=O)CC[C@]4(C)[C@H]3C(=O)C[C@@]21C | inactive |
| CNCCCN1c2ccccc2CCc2ccccc21 | inactive |
| C[C@@H]1C[C@H]2[C@@H]3CCC4=CC(=O)C=C[C@]4(C)[C@@]3(F)[C@@H](O)C[C@]2(C)[C@@]1(O)C(=O)CO | inactive |
| O=C1CC2(CCCC2)CC(=O)N1CCCCN1CCN(c2ncccn2)CC1 | inactive |
| CN(C)CCCN1c2ccccc2CCc2ccc(Cl)cc21 | inactive |
| Nc1nc(F)nc2c1ncn2[C@@H]1O[C@H](CO)[C@@H](O)[C@@H]1O | inactive |

Series 4
Compound: O=C(N[C@H]1CCCCC/C=C\C2C[C@@]2(C(=O)O)NC(=O)[C@@H]2C[C@@H](Oc3ccncc3)CN2C1=O)OC1CCCC1 (stereo partly drawn)
Method: competition with immobilised ligand
Tested at: 1 µM
| target | observed | remaining binding |
| --- | --- | --- |
| SRPK2 (Homo sapiens, UniProt P78362) | binding | 64% |
| MAP2K4 (Homo sapiens, UniProt P45985) | binding | 73% |
| Tyrosine-protein kinase ABL1, phosphorylated (ABL1, Homo sapiens, UniProt P00519, F317L) | binding | 100% |
| DSTYK (Homo sapiens, UniProt Q6XUX3) | binding | 100% |
| Ribosomal protein S6 kinase alpha-2, N-terminal kinase domain (RPS6KA2, Homo sapiens, UniProt Q15349) | binding | 99% |
| CAMK2B (Homo sapiens, UniProt Q13554) | binding | 99% |
| PIK3CA (Homo sapiens, UniProt P42336, E545K) | binding | 95% |
| KIT (Homo sapiens, UniProt P10721, D816V) | binding | 90% |
| BRSK2 (Homo sapiens, UniProt Q8IWQ3) | binding | 100% |
| FGFR3 (Homo sapiens, UniProt P22607) | cell-free assay | 88% |
| BRSK1 (Homo sapiens, UniProt Q8TDC3) | binding | 80% |
| Tyrosine-protein kinase ABL1, non-phosphorylated (ABL1, Homo sapiens, UniProt P00519, H396P) | binding | 81% |
| LRRK2 (Homo sapiens, UniProt Q5S007) | binding | 100% |
| WEE1 (Homo sapiens, UniProt P30291) | binding | 100% |
| PI4KB (Homo sapiens, UniProt Q9UBF8) | binding | 81% |
| MAP4K1 (Homo sapiens, UniProt Q92918) | binding | 93% |
| GRK3 (Homo sapiens, UniProt P35626) | binding | 100% |
| PHKG2 (Homo sapiens, UniProt P15735) | binding | 100% |
| PDGFRA (Homo sapiens, UniProt P16234) | cell-free assay | 99% |
